# Assay results from different studies.
# Lines come from different studies, so protocols differ. Values joined by “and” are separate records of one study, mostly repeats; a detail may differ. ± marks the error that the study gave.
Compound,organism,test,system,setting,how to read,measurement,value
COC(=O)N[C@H](C(=O)N1CCC[C@H]1c1ncc(-c2ccc(-c3ccc(-c4cnc([C@@H]5CCCN5C(=O)[C@@H](NC(=O)OC)C(C)C)[nH]4)cc3)cc2)[nH]1)C(C)C,hepatitis C virus,HCV replicon,,"75% effect level, added: IFN-α, ratio 1:1",,combination index,0.73 and 0.63
C=C(CC[C@@H](C)[C@H]1CC[C@H]2[C@@H]3CCC4=CC(=O)CC[C@]4(C)[C@H]3CC[C@]12C)C(C)C,Leishmania mexicana,"parasite growth, propidium iodide flow cytometry",promastigotes,48 h,,IC50,24 µM
COC(=O)C1=C(C)NC(C)=C(C(=O)OC(C)(C)CN(C)CCC(c2ccccc2)c2ccccc2)C1c1cccc([N+](=O)[O-])c1 (centres unmarked),Aspergillus fumigatus,Alamar blue,,"20 µM, 48 h",,metabolic activity,100%
CCc1cncnc1N1CCN(Cc2nc3ccc(C(F)(F)F)cc3[nH]2)CC1,murine hepatitis virus,"viral replication, nanoluciferase reporter",DBT,1 µM,baseline: DMSO vehicle,inhibition,0%
CCCC(CCC)C(=O)Nc1ccccc1O,Artemia franciscana,"LC-MS/MS metabolomics, refers to: 1-aminocyclopropanecarboxylic acid",larvae,"concentration not given, 48 h",baseline: vehicle,fold change,1.01
C[C@@H](O)[C@H]1C(=O)N2C(C(=O)O)=C(SCCN=CN)C[C@H]12,Klebsiella pneumoniae,broth microdilution,"parental, KPC-33",,,MIC,0.5 µg/mL
NS(=O)(=O)c1ccc(NN=C2C(=O)Nc3ccc(C(=O)NCCCn4ccnc4)cc32)cc1,Aspergillus fumigatus,,,20 µM,baseline: untreated,metabolic activity,≥ 80%
CCOc1cn(-c2ccc(F)cc2C)nc1C(=O)Nc1ccc(Oc2ccnc3cc(OC)c(OC)cc23)c(F)c1,murine hepatitis virus,"viral replication, nanoluciferase reporter",DBT,1 µM,baseline: DMSO vehicle,inhibition,19%
N=C(N)NCCC[C@H](NC(=O)CN)C(=O)N[C@@H](Cc1c[nH]c2ccccc12)C(=O)N[C@@H](CCCNC(=N)N)C(=O)N[C@@H](Cc1c[nH]c2ccccc12)C(=O)N[C@@H](Cc1c[nH]c2ccccc12)C(=O)N[C@@H](Cc1c[nH]c2ccccc12)C(=O)N[C@@H](CCCNC(=N)N)C(=O)N[C@@H](Cc1c[nH]c2ccccc12)C(=O)N[C@@H](CCCNC(=N)N)C(=O)N[C@@H](Cc1ccccc1)C(N)=O,Candida albicans,broth microdilution,"14936, RPMI 1640-MOPS","48 h, 30 °C",,MIC,8 µM
Cc1c([N+](=O)[O-])oc2ccc3ccccc3c12,Mycobacterium avium subsp. hominissuis,REMA,ATCC 25291,,,MIC90,4 µg/mL
O=C(O)[C@]1(Cc2cccc(Nc3nccs3)n2)CC[C@@H](Oc2cccc(Cl)c2F)CC1,murine hepatitis virus,"viral replication, nanoluciferase reporter",DBT,"1 µM, 10 h",baseline: DMSO vehicle,inhibition,9%
CCCCCCCCCC(=O)N[C@@H](Cc1c[nH]c2ccccc12)C(=O)N[C@H](CC(N)=O)C(=O)N[C@@H](CC(=O)O)C(=O)N[C@@H]1C(=O)NCC(=O)N[C@@H](CCCN)C(=O)N[C@@H](CC(=O)O)C(=O)N[C@H](C)C(=O)N[C@@H](CC(=O)O)C(=O)NCC(=O)N[C@H](CO)C(=O)N[C@@H]([C@H](C)CC(=O)O)C(=O)N[C@@H](CC(=O)c2ccccc2N)C(=O)O[C@@H]1C,Enterococcus faecalis and Enterococcus faecium,,,,,MIC90,2 µg/mL
CNC(=O)c1ccccc1Nc1cc(Nc2ccc(N3CCOCC3)cc2OC)ncc1C(F)(F)F,murine hepatitis virus,"viral replication, nanoluciferase reporter",DBT,"1 µM, 10 h",baseline: DMSO vehicle,inhibition,26%
CNCC(=O)N[C@@H](CO)C(=O)N[C@H]1[C@H](O)[C@@H](O)[C@H](n2ccc(N)nc2=O)O[C@@H]1C(N)=O,Tobacco mosaic virus,protective activity,plant in vivo,,,EC50,271 ± 2.8 µg/mL
CS(=O)(=O)CCCn1c(Cn2c(=O)n(CC(F)(F)F)c3ccncc32)cc2cc(Cl)ccc21,respiratory syncytial virus,RT-qPCR,"hospitalized infants 1-24 months, nasal swab","oral, 8 mg/kg daily, day 14, cohort 6-24 months",baseline: placebo,LS mean difference vs placebo,-0.54 log10 copies/mL
CC(=O)O[C@H]1C[C@H](O[C@H]2[C@@H](O)C[C@H](O[C@H]3[C@@H](O)C[C@H](O[C@H]4CC[C@@]5(C)[C@H](CC[C@@H]6[C@@H]5C[C@@H](O)[C@]5(C)[C@@H](C7=CC(=O)OC7)CC[C@]65O)C4)O[C@@H]3C)O[C@@H]2C)O[C@H](C)[C@H]1O[C@@H]1O[C@H](CO)[C@@H](O)[C@H](O)[C@H]1O,human alphaherpesvirus 1,live-cell GFP imaging,"primary human fibroblasts, K26 GFP",,,IC50,0.08 µM
C[C@H](NC(=O)Nc1cc2[nH]ncc2c(CO)n1)c1ccccn1,murine hepatitis virus,"viral replication, nanoluciferase reporter",DBT,"1 µM, 10 h",baseline: DMSO vehicle,inhibition,25%
O=[N+]([O-])c1cc2c(ccc3c2ccc2cc([N+](=O)[O-])oc23)o1,Mycobacterium avium subsp. hominissuis,REMA,ATCC 25291,,,MIC90,0.25 µg/mL
CN(C(=O)c1ccccc1)c1cc(N(C)c2ccc3c(c2)CCc2ccc(C(=O)NCCN4CCOCC4)cc2C3=O)ccc1F,murine hepatitis virus,"viral replication, nanoluciferase reporter",DBT,"1 µM, 10 h",baseline: DMSO vehicle,inhibition,-11%
N=C(N)NCCC[C@H](NC(=O)[C@H](Cc1c[nH]c2ccccc12)NC(=O)[C@H](CCCNC(=N)N)NC(=O)[C@H](Cc1c[nH]c2ccccc12)NC(=O)[C@H](Cc1c[nH]c2ccccc12)NC(=O)[C@H](Cc1c[nH]c2ccccc12)NC(=O)[C@H](CCCNC(=N)N)NC(=O)[C@H](Cc1c[nH]c2ccccc12)NC(=O)[C@@H](N)CCCNC(=N)N)C(=O)N[C@@H](Cc1ccccc1)C(N)=O,Candida albicans,broth microdilution,"CGMCC 2.209, RPMI 1640-MOPS","48 h, 30 °C, added: ZnCl2 8 µM",,MIC,8 µM
Nc1ncnc2c1ncn2[C@@H]1O[C@@H]2COP(=O)(O)O[C@H]3[C@@H](O)[C@H](n4cnc5c(=O)[nH]cnc54)O[C@@H]3COP(=O)(O)O[C@H]2[C@H]1O,Zika virus,"upregulated Reactome pathway, RNA sequencing, refers to: Interferon alpha/beta signaling (R-HSA-909733)",HFF-1,,baseline: ZIKV-infected untreated,fold enrichment,18.6
N=C(N)NCCC[C@H](NC(=O)CN)C(=O)N[C@@H](Cc1c[nH]c2ccccc12)C(=O)N[C@@H](CCCNC(=N)N)C(=O)N[C@@H](Cc1c[nH]c2ccccc12)C(=O)N[C@@H](Cc1c[nH]c2ccccc12)C(=O)N[C@@H](Cc1c[nH]c2ccccc12)C(=O)N[C@@H](CCCNC(=N)N)C(=O)N[C@@H](Cc1c[nH]c2ccccc12)C(=O)N[C@@H](CCCNC(=N)N)C(=O)N[C@@H](Cc1c[nH]c2ccccc12)C(N)=O,Candida parapsilosis,broth microdilution,"CGMCC 2.399, RPMI 1640-MOPS","48 h, 30 °C",,MIC,8 µM
Cc1c2c(nn1C)CSCc1cc(n(C)n1)CSc1cc(c3ccccc3c1)OCCCc1c(C(=O)O)n(C)c3c-2c(Cl)ccc13,Staphylococcus aureus,"label-free quantitative proteomics, refers to: SAOUHSC_00284 protein",SA113,concentration not given,baseline: untreated control,log2 fold change,-4.79
